Assay results of several laboratories.
Several values in a cell are separate wells, animals, samples, runs or records. ± gives the spread as reported.
B1: cytidine deaminase; sequence looked up; chain MAQKRPACTLKPECVQQLLVCSQEAKKSAYCPYSHFPVGAALLTQEGRIFKGCNIENACYPLGICAERTAIQKAVSEGYKDFRAIAIASDMQDDFISPCGACRQVMREFGTNWPVYMTKPDGTYIVMTVQELLPSSFGPEDLQKTQ
B2: caprin-1; sequence looked up; chain PSATSHSGSGSKSSGPPPPSGSSGSEAAAGAGAAAPASQHPATGTGAVQTEAMKQILGVIDKKLRNLEKKKGKLDDYQERMNKGERLNQDQLDAVSKYQEVTNNLEFAKELQRSFMALSQDIQKTIKKTARREQLMREEAEQKRLKTVLELQYVLDKLGDDEVRTDLKQGLNGVPILSEEELSLLDEFYKLVDPERDMSLRLNEQYEHASIHLWDLLEGKEKPVCGTTYKVLKEIVERVFQSNYFDSTHNHQNGLCEEEEAASAPAVEDQVPEAEPEPAEEYTEQSEVESTEYVNRQFMAETQFTSGEKEQVDEWTVETVEVVNSLQQQPQAASPSVPEPHSLTPVAQADPLVRRQRVQDLMAQMQGPYNFIQDSMLDFENQTLDPAIVSAQPMNPTQNMDMPQLVCPPVHSESRLAQPNQVPVQPEATQVPLVSSTSEGYTASQPLYQPSHATEQRPQKEPIDQIQATISLNTDQTTASSSLPAASQPQVFQAGTSKPLHSSGINVNAAPFQSMQTVFNMNAPVPPVNEPETLKQQNQYQASYNQSFSSQPHQVEQTELQQEQLQTVVGTYHGSPDQSHQVTGNHQQPPQQNTGFPRSNQPYYNSRGVSRGGSRGARGLMNGYRGPANGFRGGYDGYRPSFSNTPNSGYTQSQFSAPRDYSGYQRDGYQQNFKRGSGQSGPRGAPRGRGGPPRPNRGMPQMNTQQVN
B3: C1orf122 protein; sequence looked up; chain MEWGPGSDWSRGEAAGVDRGKAGLGLGGRPPPQPPREERAQQLLDAVEQRQRQLLDTIAACEEMLRQLGRRRPEPAGGGNVSAKPGAPPQPAVSARGGFPKDAGDGAAEP

YMLDLQPET — specific lysis (Ca-Ski (HLA-A2+ HPV+); 111In release; peptide; concentration not given, 16 h, E:T 25:1 IVS 5, added: peptide-generated T-cell line): 39.8%
cofilin-1 — log2 fold change (peptide binding, SILAC pull-down; concentration not given; reference: non-acetylated over acetylated NIT1 peptide): -0.442
TNPYPTGPG — IC50 (Mamu-B*08301 MHC class I; peptide binding; peptide, Chinese rhesus macaque): > 20 µM
nonaarginine — kon (PorA peptide pore; peptide binding, planar bilayer single-channel recording; 0.5 µM, pH 7.4, -10 mV, cis side, 150 mM KCl): 1.2e+06 ± 100000 M⁻¹ s⁻¹
KISEYRHYV — specific lysis (HN-4 (HLA-A2+ HPV+); 111In release; peptide; concentration not given, 16 h, E:T 25:1 IVS 5, added: peptide-generated T-cell line): 30.6%
lead — viability (glioblastoma; CCK-8; 1 µM, 24 h, unit not given; reference: untreated control): 1.01
BIRC3 — log2 fold change (peptide binding, SILAC pull-down; concentration not given; reference: non-acetylated over acetylated NIT1 peptide): 5.12
caspofungin — metabolic activity (Aspergillus fumigatus; Alamar blue; 0.2 µg/mL): 100%
QLGIPHPAG — IC50 (Mamu-A1*02601 MHC class I; peptide binding; peptide, Chinese rhesus macaque): > 20 µM
QQYNKPLCDL — IFN-γ release (HPV16 E6-specific T-cell line; ELISA; peptide, supernatant; concentration not given, 24 h, added: peptide-pulsed autologous B cells): 338 pg/mL
Met-enkephalin-Arg-Phe — maximum possible effect (antinociception, hot plate; male ICR-CD1 mice; intracerebroventricular, 50 µg/animal, 15 min): 4.7% and 2.09% and 1.53% and 6.33% and 11.5% and 5.17% and 12.6% and 12.8%
B1 (cytidine deaminase) — log2 fold change (peptide binding, SILAC pull-down; concentration not given; reference: non-acetylated over acetylated NIT1 peptide): -0.361
Polymyxin B — MIC (Pseudomonas aeruginosa; broth microdilution; P2 clinical isolate; 20 h): 0.5 µg/mL
GWTLNSAGYLLGPHAVDNHRSFNDKHGFT-NH2 (C-amide) — colon length (peptide, mouse, DSS-induced colitis; ip, 0.75 µM): 5.2 cm and 5.4 cm and 5 cm and 4.6 cm and 4.8 cm
Tunicamycin — protein level (HEK293; western blot, measured: total eIF2α; 10 µg/mL, 6 h, unit not given; reference: mock): 0.921 and 1.26 and 1.19
QLYNKPLCDV — specific lysis (ASPC1 (HLA-A2− HPV−); 111In release; peptide; concentration not given, 16 h, E:T 25:1, IVS 5, added: peptide-generated T-cell line): 0.3%
VPGFQALSE — IC50 (Mamu-A1*02601 MHC class I; peptide binding; peptide, Chinese rhesus macaque): > 20 µM
CTPS1 — log2 fold change (peptide binding, SILAC pull-down; concentration not given; reference: non-acetylated over acetylated NIT1 peptide): 0.184
mastoparan — concentration for maximal DNA synthesis (Swiss 3T3 quiescent; [3H]thymidine incorporation; 40 h, added: insulin 1 µg/mL): 17 µM
insulin human — fold change (measured: GRIA3 mRNA; uninfected mouse, brain; i.p., dose not given; reference: PBS): 0.916
aspterric acid — root length (Arabidopsis thaliana Col-0 seeds; 100 µg/mL, seed germination): 0.01 cm
BIRC6 — log2 fold change (peptide binding, SILAC pull-down; concentration not given; reference: non-acetylated over acetylated NIT1 peptide): 8.14
hexaarginine — koff (PorA peptide pore; peptide binding, planar bilayer single-channel recording; 0.5 µM, pH 7.4, +25 mV, trans side, 150 mM KCl): 4350 ± 430 s⁻¹
GWTLNSAGYLLGPRRIDHLLMIKEMPIARGREEAPGA / YAVDNHRSFNDKHGFT-NH2 (C-amide) — colon length (mouse, DSS-induced colitis; ip, 1.5 µM): 7 cm and 6.8 cm and 6.5 cm and 7.1 cm
DnaJ homolog DNAJB6 — log2 fold change (peptide binding, SILAC pull-down; concentration not given; reference: non-acetylated over acetylated NIT1 peptide): -0.337
pertussis toxin — phospho-PKC level (immunostaining, measured: p-PKC; humanized UT (+/h+) mice, SAH model, meninges; dose not given): 42.2 MFI and 37.5 MFI and 67.5 MFI
B2 (caprin-1) — log2 fold change (peptide binding, SILAC pull-down; concentration not given; reference: non-acetylated over acetylated NIT1 peptide): 0.675
colistin — CFU relative to caspofungin alone (Aspergillus fumigatus; conidia; 2.5 µM, added: caspofungin 0.2 µg/mL; reference: caspofungin alone): 4.22 and 3.69
B3 (C1orf122 protein) — log2 fold change (peptide binding, SILAC pull-down; concentration not given; reference: non-acetylated over acetylated NIT1 peptide): 0.941
(−)-antroquinonol A — IC50 (A549; cytotoxicity, MTS): 13.7 µM and 15.3 µM

A few entries again:
insulin human — fold change (measured: GRIA3 mRNA; uninfected mouse, brain; i.p., dose not given; reference: PBS): 0.916
Tunicamycin — protein level (HEK293; western blot, measured: total eIF2α; 10 µg/mL, 6 h, unit not given; reference: mock): 0.921 and 1.26 and 1.19
QLGIPHPAG — IC50 (Mamu-A1*02601 MHC class I; peptide binding; peptide, Chinese rhesus macaque): > 20 µM
cofilin-1 — log2 fold change (peptide binding, SILAC pull-down; concentration not given; reference: non-acetylated over acetylated NIT1 peptide): -0.442
